Experimental data gathered from unrelated publications.
Parts stem from different laboratories: compare values within a part only. Positions count from the first letter of the parent shown.

Set 1 — read-out: phage display binding; method: phage display panning NGS; form: peptide; reference: OGT-panned over input library
Target: UDP-N-acetylglucosamine--peptide N-acetylglucosaminyltransferase 110 kDa subunit (OGT, Homo sapiens, UniProt O15294)
Chain of UniProt O15294 (whole entry, looked up): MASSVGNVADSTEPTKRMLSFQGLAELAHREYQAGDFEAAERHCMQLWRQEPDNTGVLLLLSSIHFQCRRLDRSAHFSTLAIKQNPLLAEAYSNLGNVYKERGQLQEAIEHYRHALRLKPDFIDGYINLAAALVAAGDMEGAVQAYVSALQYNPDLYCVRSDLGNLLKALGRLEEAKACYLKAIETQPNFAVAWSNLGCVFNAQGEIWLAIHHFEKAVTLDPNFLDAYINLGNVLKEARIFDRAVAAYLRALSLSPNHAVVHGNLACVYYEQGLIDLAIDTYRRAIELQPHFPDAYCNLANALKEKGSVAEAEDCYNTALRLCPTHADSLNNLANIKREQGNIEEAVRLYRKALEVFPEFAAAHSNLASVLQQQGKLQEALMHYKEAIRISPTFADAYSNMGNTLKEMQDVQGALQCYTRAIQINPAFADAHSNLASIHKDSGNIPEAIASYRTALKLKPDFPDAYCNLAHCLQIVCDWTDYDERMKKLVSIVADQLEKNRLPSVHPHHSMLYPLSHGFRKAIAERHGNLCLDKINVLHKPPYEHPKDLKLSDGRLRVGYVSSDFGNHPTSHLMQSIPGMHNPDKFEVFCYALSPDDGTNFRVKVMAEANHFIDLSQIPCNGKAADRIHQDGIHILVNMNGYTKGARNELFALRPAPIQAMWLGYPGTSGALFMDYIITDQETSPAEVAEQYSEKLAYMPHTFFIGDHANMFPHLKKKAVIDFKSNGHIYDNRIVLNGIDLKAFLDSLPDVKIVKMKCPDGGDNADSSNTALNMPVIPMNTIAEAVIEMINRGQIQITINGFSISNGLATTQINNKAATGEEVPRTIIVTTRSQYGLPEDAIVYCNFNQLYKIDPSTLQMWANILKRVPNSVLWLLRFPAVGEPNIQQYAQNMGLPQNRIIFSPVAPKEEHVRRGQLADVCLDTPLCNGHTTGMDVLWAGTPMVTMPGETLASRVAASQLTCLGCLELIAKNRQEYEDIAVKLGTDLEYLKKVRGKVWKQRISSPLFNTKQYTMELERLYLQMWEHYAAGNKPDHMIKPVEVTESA
Sequence	log2 fold enrichment
GHFPVLHNTYQHHHQ	3.1
TPFLPMYQIPMDVHN	3.99
QELFSHRMRFEQHHH	6.11
HDHNKWAVNQHGWHV	3.09
HYMSHPIHLFKGHHN	2.09
TQWRMDHKHHQMHRI	6.03
FDHRDYHHYEQFHH	3.15
HTMWHAEHFTRYDVH	2.59
AQNYLPVYQIVWRDN	3.51
RPITSAYQPSYQIVL	2.13
SSYMPQYQISFLKKE	6.02
QIQTMLHQHSVHHTH	2.54
HSQHAIHHTIDNHA	3.49
QLKHTIHHHHTAPRY	2.94
HILVPMRPMTHHHAV	3.07
VLQPYLPEYQIYPNY	2.67
HYGQMIHHFPQGFHD	2.93

Set 2 — method: RNA Bind-n-Seq; form: RNA; matrix: in vitro; concentration: 100 nM; reference: input RNA pool; reading: higher = stronger binding
Target: RING finger protein unkempt homolog, zinc fingers 1-6, SBP tag (UNK, Homo sapiens, UniProt Q9C0B0, residues 30-357)
Chain of UniProt Q9C0B0 (30-357, looked up): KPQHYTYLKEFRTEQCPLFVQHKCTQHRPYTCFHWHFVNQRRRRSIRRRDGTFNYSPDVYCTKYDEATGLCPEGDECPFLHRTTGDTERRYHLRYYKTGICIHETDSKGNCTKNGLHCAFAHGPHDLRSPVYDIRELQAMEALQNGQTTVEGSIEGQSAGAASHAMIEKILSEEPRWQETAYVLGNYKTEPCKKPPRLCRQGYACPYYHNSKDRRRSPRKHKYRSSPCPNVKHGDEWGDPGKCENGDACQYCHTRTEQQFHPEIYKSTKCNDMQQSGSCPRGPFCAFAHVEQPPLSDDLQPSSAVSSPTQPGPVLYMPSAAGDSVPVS
Setting: RNA with constant flanks, vertebrate orthologous sites, ends assumed
Oligonucleotide	bound/input enrichment [ratio]
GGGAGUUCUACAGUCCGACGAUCUGUUUUCUUUUUGUAGGUAUCAUUGCCCAAUGCCCAAGAUUUUUUAUGUUCAGUUGACUGUAGGAAAUAAUGAAUUCUUUGGUGAAGGGAAGACUCGACAAGCUGCCAGACACAAUGCUGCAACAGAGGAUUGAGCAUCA	0.69
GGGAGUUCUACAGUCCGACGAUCUAUUAGUGUCGUACCAGCCUCUUAACCUCUUGUCUGUGCACAGCUUCAAAUGUUACUGUCUAGUUAGAUUUUUAUUUAAAAUAUGAAAAACUGCUUUUCCCAAGACGUUUUUUAAAAACACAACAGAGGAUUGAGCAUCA	1.79
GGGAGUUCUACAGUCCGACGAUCCAUUGUACCCUGCUGUAUAAUAAACAAUCUUAGACAUUUAUCAACUGUUGAUACAAAUGUUAGUCCCUAACCACUUUUUAUAUGUUUUAAAUUUUUGAAAUUCAAGUGUACCUGCCGUAACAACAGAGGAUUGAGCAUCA	1.85
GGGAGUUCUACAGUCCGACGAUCAGGGAGAAGAGCUCACAAACUCAAAGGGAAACUAUGAAAGAGUUUCUAAGAGUUAAAAGCUAGGAAAGAUUAGAACAAUUUUAGAAAUGAGCAGUUAAAAAGAAAAGAAAAAAAAAGAAACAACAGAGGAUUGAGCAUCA	1.48
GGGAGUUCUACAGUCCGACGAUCUGUGAGGGUGGGGGGUGGGGAAGGGAAGAUGUAUGGAUGUUAUUGGCAUUUUUAAGUGUUUAGAGUCUUUUUUUCCCCCCCUUUGUUCUGUUUUGCAUUUUCUCUUUAAUUGGAUGCACUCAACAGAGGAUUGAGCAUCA	1.2
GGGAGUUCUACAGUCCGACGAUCGUGACUUUGGAAGUCCGCAGUGUCUCAUUGCAGAUACUACUUAGCUCAGGGCCUGGUGGCUAGACAAGUUCUCUCCUUUCCAGUCGGAGGCCUGUGUCGCAAACAUGCUCCGCCAUAUGGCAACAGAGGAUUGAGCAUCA	0.461
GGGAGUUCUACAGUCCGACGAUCCCGAAAGGCCAAAUUCCCUCCUCCCUUCUACUGCUUCUACCAACUGGAAGCACAGAAAACUAGAAUUUCAUUUAUUUUGUUUUUUAAAAAUAUACGUUGAUUUCUUGUAACAUUCAGUAGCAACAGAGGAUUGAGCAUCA	0.625
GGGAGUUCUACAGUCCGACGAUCGGGACGCUUUGAUGUAAAAAUUGAAAUUAAGAGCUGAUCACAAGCACAAAUCUUUCCCACUAGCCAUUUAAUAAGUUAAAAAAAGAUACACAAACCUACUAGUCUUGAACAAACUGUCAUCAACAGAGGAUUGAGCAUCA	2.56

Set 3 — target: tungstate, free oxyanion; method: microfluidic competitive inhibition; matrix: in vitro, cell-free expressed; concentration: not given; reading: lower = stronger binding
Setting: derived from inhibition constants, unchanged parent 2230 nM
Parent: PafA, mature enzyme, eGFP fusion (Elizabethkingia meningoseptica, UniProt Q9KJX5); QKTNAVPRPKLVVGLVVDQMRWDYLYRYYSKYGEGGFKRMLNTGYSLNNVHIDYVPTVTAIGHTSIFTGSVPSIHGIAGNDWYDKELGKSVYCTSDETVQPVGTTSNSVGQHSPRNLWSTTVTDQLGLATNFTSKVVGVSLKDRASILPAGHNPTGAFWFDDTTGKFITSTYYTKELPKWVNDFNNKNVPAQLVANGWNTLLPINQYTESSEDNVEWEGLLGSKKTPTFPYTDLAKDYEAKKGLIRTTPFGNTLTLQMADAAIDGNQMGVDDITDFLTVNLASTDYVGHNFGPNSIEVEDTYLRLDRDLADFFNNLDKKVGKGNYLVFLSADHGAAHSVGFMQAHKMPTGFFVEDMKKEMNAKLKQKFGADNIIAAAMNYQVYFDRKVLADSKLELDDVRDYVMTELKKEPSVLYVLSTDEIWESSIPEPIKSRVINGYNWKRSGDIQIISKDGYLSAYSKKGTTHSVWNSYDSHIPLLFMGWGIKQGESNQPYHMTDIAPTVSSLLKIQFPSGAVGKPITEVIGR
Change	oxyanion analog dissociation constant [nM]
T120V	1240
R144V	> 907000
S460V	2960
S513V	938
P114V	2370
M496G	1350

Set 4 — target: CCNB1, cyclin fold, Cln2 fusion (human); method: yeast growth competition, sequencing; matrix: yeast; setting: weak parent motif; reference: not given; reading: higher = stronger binding
Parent: E2F2 docking peptide (human); LPAKRKLDLEGIG
Change	normalised enrichment score
R5A L7A	0.141
R5A	0.741
G13A	1.11
L9F	2.14
K4A	0.977
P2A	-0.268
L1A	0.526
R5K L9F	0.402

Repeated from above (set 3):
Change	oxyanion analog dissociation constant [nM]
R144V	> 907000
S460V	2960
S513V	938
P114V	2370
M496G	1350
